{"data": "Assay results collected from several papers", "note": "Lines come from different studies, so protocols differ. ± gives the spread as reported."}
{"Structure (SMILES)": "CNS(=O)(=O)Nc1nccc(Cc2c(C)c3ccc(Oc4ncccc4F)cc3oc2=O)c1F", "tested on": "BC-2", "test": "cell viability", "setting": "7 days", "endpoint": "IC50", "value": "> 1000 nM"}
{"Structure (SMILES)": "Cc1ncsc1-c1ccc(C(C)NC(=O)C2CC(O)CN2C(=O)C(NC(=O)CCCCCCCCCCN2CCCC(Nc3ncc(Cl)c(Nc4ccccc4S(=O)(=O)C(C)C)n3)C2)C(C)(C)C)cc1 (stereo not drawn)", "tested on": "22Rv1", "test": "RNA-seq, measured: ZNF737 mRNA", "setting": "concentration not given", "how to read": "reference: DMSO", "endpoint": "log2 fold change", "value": -1.33}
{"Structure (SMILES)": "Nc1ncc(-c2cc(-c3cnn(CC(F)(F)F)c3)ncc2F)nc1C(=O)NC1CNCC(F)C1 (stereo not drawn)", "tested on": "ULK2", "test": "KINOMEscan", "setting": "1 µM", "how to read": "reference: DMSO control", "endpoint": "remaining binding", "value": "67%"}
{"Structure (SMILES)": "O=C(N/N=C/c1cc[n+](CC2CC2)c2ccccc12)c1cc(C(=O)N/N=C/c2cc[n+](CC3CC3)c3ccccc23)ncn1", "tested on": "myc22 MYC G4-DNA parallel", "test": "FRET melting", "setting": "1 µM, K1 buffer, DNA 0.2 µM", "endpoint": "ΔTm", "value": "6.1 °C"}
{"Structure (SMILES)": "CN1CCCNC(=O)c2cccc(c2)C(=O)NCCCN(C)CCCNc2cccc3c2C(=O)c2cccc(c2C3=O)NCCC1", "tested on": "SAS", "test": "RNA-Seq, measured: CHCHD7 mRNA", "setting": "1 µM, 6 h", "how to read": "reference: untreated cells", "endpoint": "log2 fold change", "value": -0.606}
{"Structure (SMILES)": "O=C(N/N=C/c1ccc2c(ccc[n+]2Cc2ccccc2)c1)c1cccc(C(=O)N/N=C/c2ccc3c(ccc[n+]3Cc3ccccc3)c2)n1", "tested on": "myc22 MYC G4-DNA parallel", "test": "FRET melting", "setting": "1 µM, K1 buffer, DNA 0.2 µM, added: ds26 10 µM", "endpoint": "ΔTm", "value": "16.1 ± 0.2 °C"}
{"Structure (SMILES)": "COC1CN([C@H]2CC[C@H]([C@@]3(C)Oc4c(Cl)cc(C(=O)NCc5c(SC)cc(C)[nH]c5=O)c(C)c4O3)CC2)C1", "test": "RNA-seq, measured: TRPV4", "system": "human, whole blood", "setting": "dose not given, 24 h", "how to read": "reference: pretreatment baseline", "endpoint": "log2 fold change", "value": 2.39}
{"Structure (SMILES)": "O=C(N/N=C/c1cc[n+](CC2CC2)c2ccccc12)N/N=C/c1cc[n+](CC2CC2)c2ccccc12", "tested on": "myc22 MYC G4-DNA parallel", "test": "FRET melting", "setting": "1 µM, K1 buffer, DNA 0.2 µM", "endpoint": "ΔTm", "value": "7.7 ± 0.5 °C"}
{"Structure (SMILES)": "C=CC(=O)Nc1cccc(Cn2ncc3cnc(Nc4cnn(CCOC)c4)nc32)c1", "tested on": "CDK2 human", "test": "binding, KINOMEscan", "setting": "100 nM", "how to read": "lower = stronger binding", "endpoint": "percent of control", "value": "85%"}
{"note": "For quick reference, copied from above:"}
{"Structure (SMILES)": "Cc1ncsc1-c1ccc(C(C)NC(=O)C2CC(O)CN2C(=O)C(NC(=O)CCCCCCCCCCN2CCCC(Nc3ncc(Cl)c(Nc4ccccc4S(=O)(=O)C(C)C)n3)C2)C(C)(C)C)cc1 (stereo not drawn)", "tested on": "22Rv1", "test": "RNA-seq, measured: ZNF737 mRNA", "setting": "concentration not given", "how to read": "reference: DMSO", "endpoint": "log2 fold change", "value": -1.33}
